Experimental data collected from several papers.
Parts stem from different laboratories: compare values within a part only. Substitutions count along the parent as printed.

Set 1
Target: CCNB2, cyclin fold, Cln2 fusion (human)
Technique: yeast growth competition, sequencing
Sample: yeast
Notes: strong parent motif
Baseline: not given
Reading: higher = stronger binding
Parent: PKMYT1 docking peptide (human); SFEPRNLLSLFED; partner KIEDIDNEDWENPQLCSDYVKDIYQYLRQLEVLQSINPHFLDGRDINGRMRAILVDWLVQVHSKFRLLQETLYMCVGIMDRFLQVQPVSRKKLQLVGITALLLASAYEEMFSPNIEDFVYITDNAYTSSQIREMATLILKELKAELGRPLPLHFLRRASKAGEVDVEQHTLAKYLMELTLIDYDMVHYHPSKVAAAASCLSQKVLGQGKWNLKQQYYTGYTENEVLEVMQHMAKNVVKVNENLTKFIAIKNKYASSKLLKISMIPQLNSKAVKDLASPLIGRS
`SFEPRNLLFLFED [S9F]` — result for “normalised enrichment score”: 1.2.
`SFKPRNLLSLFED [E3K]`: “normalised enrichment score” 1.5.
`SFEPRKLLSLFED [N6K]` — result for “normalised enrichment score”: 0.171.
Under “normalised enrichment score”, `SFEPRNLLSLFAD [E12A]` is recorded as 0.327.
For `SFEPRNLLSLFPD [E12P]`, “normalised enrichment score” read -0.615.
`SYEPRNLLSLFED [F2Y]` — result for “normalised enrichment score”: -0.105.
`SEEPRNLLSLFED [F2E]`: “normalised enrichment score” -0.601.
For `GFEPRNLLSLFED [S1G]`, “normalised enrichment score” read 1.55.
`SFEPRNLLSLKED [F11K]` — result for “normalised enrichment score”: -0.118.

Set 2
Substance: PhoQ, residues 284 288 289 292 302 303 NLCILV
Technique: Sort-seq
Measured: YFP reporter
Sample: E. coli
Notes: PhoQ-PhoP variant library
Together with: 10 µM Mg2+
Baseline: high Mg2+ state
Reading: higher = stronger signaling
It gave 13.5 for fold induction (PhoP, residues 12 14 15 18 19 TQALL (Escherichia coli, UniProt P23836)).
The fold induction was 4.33 (PhoP, residues 12 14 15 18 19 QYFSL (Escherichia coli, UniProt P23836)).
For PhoP, residues 12 14 15 18 19 NYFRM (Escherichia coli, UniProt P23836): fold induction read 14.4.

Set 3
Target: Sal-like protein 4, full length isoform B (SALL4, Homo sapiens, UniProt Q9UJQ4-2, residues 1-616)
Technique: universal PBM
Molecule type: double-stranded DNA, one strand shown
Sample: in vitro
Tested at: not given
Notes: 8-mer, flanks averaged, mean of replicates
Reading: higher = stronger binding
For `AATCCATT`, the E-score was 0.174.
For `ACAGGAAA`, the E-score was 0.154.
`CGGGCTAA` gave an E-score of -0.295.
`TTAGATAA` gave an E-score of 0.254.
`TCACCACA` has an E-score of 0.00537.
`GCTACTGA` has an E-score of -0.0806.
`ATGTACGA` has an E-score of 0.149.
`ATCCCGAT` has an E-score of 0.0996.
With `CGAGACGC` the E-score was -0.126.
For `CAGGCCTG`, the E-score was -0.252.
The E-score of `TCTCGTCA` is reported as 0.0243.
With `TAAAGATA` the E-score was 0.202.
With `CATGTCAA` the E-score was 0.109.
`GCTTCACA` gave an E-score of -0.00405.
With `CGGGACGC` the E-score was -0.28.
With `ATCGCGAA` the E-score was -0.0677.

Set 4
Target: Interferon regulatory factor 7, full length, phosphomimetic (IRF7, Homo sapiens, UniProt Q92985, residues 1-503, S101K/S471D/S472D/S475D/S476D/S477D/S483D/S484D/S487D)
Technique: protein-binding microarray
Molecule type: double-stranded DNA, one strand shown
Sample: in vitro
Tested at: 250 nM
Notes: 60-bp whole probe
Together with: salmon DNA 0.4 mg/ml
Baseline: random background probes
Reading: higher = stronger binding
All sequences stand within: GCCTAGCAC … GTCTTGATTCGCTTGACGCTGCTG
Target sequence (chain): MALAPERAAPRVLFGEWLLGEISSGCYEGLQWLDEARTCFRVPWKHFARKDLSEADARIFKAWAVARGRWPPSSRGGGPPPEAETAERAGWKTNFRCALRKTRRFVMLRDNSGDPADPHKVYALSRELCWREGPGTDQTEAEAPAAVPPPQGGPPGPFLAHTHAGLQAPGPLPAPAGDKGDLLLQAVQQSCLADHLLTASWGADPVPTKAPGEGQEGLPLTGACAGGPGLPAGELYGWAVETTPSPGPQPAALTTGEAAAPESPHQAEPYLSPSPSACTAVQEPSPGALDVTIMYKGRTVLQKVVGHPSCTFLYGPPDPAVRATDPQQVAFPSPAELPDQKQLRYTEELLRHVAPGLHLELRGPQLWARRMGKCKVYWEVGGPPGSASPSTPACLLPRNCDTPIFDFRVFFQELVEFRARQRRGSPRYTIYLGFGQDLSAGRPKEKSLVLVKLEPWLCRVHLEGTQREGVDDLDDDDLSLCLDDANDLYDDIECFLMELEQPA
`TTAGAACTGAGTGTCGATTAGTGCTAG` gave a log fluorescence of -0.174 z-score.
`TCATCTCTACATGTGTTACTGTGCTAG` gave a log fluorescence of 0.555 z-score.
The log fluorescence of `CTGTTTTTGCTTTCCTTCATGTGCTAG` is reported as 3.02 z-score.
For `TTAGGTCTCGGTATCGCTTAGTGCTAG`, the log fluorescence was 2.65 z-score.
With `TACGGTATCGGTATCGGGACGTGCTAG` the log fluorescence was 1.34 z-score.
`CCCTTAAAAGACGTGCCAATGTGCTAG` gave a log fluorescence of 0.426 z-score.
For `GACGTTTTCGACTTTCGGGACGTGCTA`, the log fluorescence was 3.65 z-score.
`TCAAGTGTGCCATATTTAACTGTGCTA` has a log fluorescence of -0.425 z-score.
The log fluorescence of `GGCGATTTCAGTTCCGAGACGTGCTAG` is reported as -0.0593 z-score.
`GACGGTCTCGGTCCCGGGACGTGCTAG` has a log fluorescence of 0.502 z-score.
`TTAGAACTGGGTTTCGGTTAGTGCTAG` has a log fluorescence of 7.09 z-score.
With `GACGAACTGAGTTTGGAGACGTGCTAG` the log fluorescence was -0.476 z-score.
With `TTAGAAATGAGTTTCGATTAGTGCTAG` the log fluorescence was 8.26 z-score.
`GTTTGTGTGTGTATGTGGTCGTGCTAG` gave a log fluorescence of 0.0256 z-score.
For `TTCGGACTGGGGACTGGGTTAGTGCTA`, the log fluorescence was -0.218 z-score.

For quick reference, copied from above (set 4):
The log fluorescence of `GGCGATTTCAGTTCCGAGACGTGCTAG` is reported as -0.0593 z-score.
`GACGGTCTCGGTCCCGGGACGTGCTAG` has a log fluorescence of 0.502 z-score.
`TTAGAACTGGGTTTCGGTTAGTGCTAG` has a log fluorescence of 7.09 z-score.
With `GACGAACTGAGTTTGGAGACGTGCTAG` the log fluorescence was -0.476 z-score.
With `TTAGAAATGAGTTTCGATTAGTGCTAG` the log fluorescence was 8.26 z-score.
